Published values from different studies.
Compare with care: the assays were run in different laboratories.
Form: double-stranded DNA, one strand shown
crp 1-224: crp 1-224 (Streptomyces coelicolor, UniProt Q9XA42)
fruR: fruR (Faecalibacterium prausnitzii)
pmiR 1-240: pmiR fragment (Pseudomonas aeruginosa)
T1: cbrB residues 1-471 (Pseudomonas stutzeri); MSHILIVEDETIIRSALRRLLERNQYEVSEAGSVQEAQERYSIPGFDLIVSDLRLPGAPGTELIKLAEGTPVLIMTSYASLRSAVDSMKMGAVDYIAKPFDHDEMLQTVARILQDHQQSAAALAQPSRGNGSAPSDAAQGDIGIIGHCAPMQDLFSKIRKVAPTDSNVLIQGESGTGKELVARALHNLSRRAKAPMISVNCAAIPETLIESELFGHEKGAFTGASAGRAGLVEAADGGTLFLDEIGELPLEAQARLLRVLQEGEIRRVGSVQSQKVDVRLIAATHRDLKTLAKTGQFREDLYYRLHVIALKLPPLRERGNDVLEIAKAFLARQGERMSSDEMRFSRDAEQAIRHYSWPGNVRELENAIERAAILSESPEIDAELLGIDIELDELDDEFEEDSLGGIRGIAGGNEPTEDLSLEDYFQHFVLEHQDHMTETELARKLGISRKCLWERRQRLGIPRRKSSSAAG
T2: fruR (Faecalibacterium prausnitzii); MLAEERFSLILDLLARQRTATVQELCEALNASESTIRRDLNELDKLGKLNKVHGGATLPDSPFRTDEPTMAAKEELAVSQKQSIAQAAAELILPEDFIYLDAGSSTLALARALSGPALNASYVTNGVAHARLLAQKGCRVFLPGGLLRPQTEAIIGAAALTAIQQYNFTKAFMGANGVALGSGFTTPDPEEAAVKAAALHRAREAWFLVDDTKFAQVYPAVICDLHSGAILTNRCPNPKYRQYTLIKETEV
T3: vfr 1-214 (Pseudomonas syringae); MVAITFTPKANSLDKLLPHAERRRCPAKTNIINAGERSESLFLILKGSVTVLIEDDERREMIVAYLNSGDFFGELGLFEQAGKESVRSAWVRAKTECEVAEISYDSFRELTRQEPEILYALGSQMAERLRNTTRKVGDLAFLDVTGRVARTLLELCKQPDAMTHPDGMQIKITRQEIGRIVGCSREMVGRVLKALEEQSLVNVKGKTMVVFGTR
Sequence of UniProt O25896 (whole entry, looked up): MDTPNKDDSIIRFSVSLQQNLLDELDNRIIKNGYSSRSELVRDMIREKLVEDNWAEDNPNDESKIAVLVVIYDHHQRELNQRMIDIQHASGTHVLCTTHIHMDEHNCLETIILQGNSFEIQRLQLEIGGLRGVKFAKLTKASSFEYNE
Sequence of UniProt H9L484 (whole entry, looked up): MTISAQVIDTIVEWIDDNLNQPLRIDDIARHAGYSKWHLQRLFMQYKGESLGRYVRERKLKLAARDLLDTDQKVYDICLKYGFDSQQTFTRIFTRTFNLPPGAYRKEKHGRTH

Sequence | target | test | conditions | binding
GAGTTCTCTCCTTGTCGACCGGCTCAGAGGATCTTGTTCCCCCGGTGTACCAGGGGTCCGTGGTGCCCATTTTGCCGGACAGTCCAAACAGTGTGATCTGTCACAAGGATGCCGCACTGATGTCCCGGGGTACGCGGCAGGGGTCCAATTGGGCGCCGGTCTTCGAGGTCCGGGGCGGATGTCCGTGCCGGGTCGTAGGCTGGCCGGGTGTCCAAATCGCCGGTGAGAGCACA (dsDNA) | crp 1-224 | DNase I footprinting | with: cAMP 50 µM | binds
GTGTGCTTTCTTGTTCTTGTTGTGCCCATTAGAAAGCATTCGCCGTGCCAGCTTTTGAGAATCCTTTATTTTCAATAGGTTAGCCATCTTCACCTGTCACGAGAGACTGCCGCGCCAGCCCTTTCGTTACCGCCCACCCCAGGAGACCGTTACGCCGTACGAAAGGAGTAACACCTTCGGACAGGTTTCCAGTAACAGCTGCAGCTCCGCATCGGGCGCTCAACGCAGGACACCCCGACAGTGGTCACCGTCAGGGTGTCGATCGCTCGATGGGCATAGGTAGGTTCTTCGGCTGGTTAG (dsDNA) | T1, cbrB residues 1-471 (Pseudomonas stutzeri) | DNase I footprinting |  | binds
CTCAACCACTGGCTCGATCACCTGCTGCTGACCTTGTTACCGGGGGAGGTGAAATGAGCCCCGCGCAGCAGCGTGGGCTGGCGCTGTGGGCCAGTCTGCTGAGTGCGCTG (dsDNA (Klebsiella pneumoniae); blunt) | hns 1-135 (Klebsiella pneumoniae, UniProt A0ACD7U3E5) | EMSA |  | no binding
CCGTGATCCCTGGCTCCCCTATTAGGAGAGCTCCGCAAGGCGCTGGCACAGCCAGACCGAAGCGGTGAGAGATTCAGCCGACATTCCATTGTGGAGTGTCGGCCTTTTTGTTGTATCCCACTCTTTATGCATCCTGCCCAAAAAACAGAGCAATATTTTGTCGCTCAAACTTGGCGGAATCTGATTGATTTTGACTGAAATTTTGCTATAATAAGGGTACAAGGCGGTCAGAACCCGCCAATGTCAATCAAAATCAATCATATAAATCGAACAAGGGGGAATGTTCCCG (dsDNA) | T2, fruR (Faecalibacterium prausnitzii) | EMSA | apo | binds
CTAGCGGGGATTTCCGGCCACGCGTGCCGTGCCCGGGCCACGCTTGCCTTCCCGGCGCGCCGGACTCCCGGTGGCCTGGAGGACAGGAAAAGCGAGCGGCGAGGTGTCGGCGAGCAGGGTCAACTCGATCTTCTGATAGGGTCGGTGGGCTGTCCGGGGCGGCTAGGATGGACATTTTCATCGTCTCGGGCAGGCCTGTCGCGACCGCGCGAAGTCGCGACGGATGCCGCTGCTAAGGAGCAACGGATGACCGTTCTTATCCAGGG (dsDNA) | pmiR 1-240 | EMSA |  | no binding
CCGTGATCCCTGGCTCCCCTATTAGGAGAGCTCCGCAAGGCGCTGGCACAGCCAGACCGAAGCGGTGAGAGATTCAGCCGACATTCCATTGTGGAGTGTCGGCCTTTTTGTTGTATCCCACTCTTTATGCATCCTGCCCAAAAAACAGAGCAATATTTTGTCGCTCAAACTTGGCGGAATCTGATTGATTTTGACTGAAATTTTGCTATAATAAGGGTACCATTTTCGCCGAACCCGCCAATGTCAATCAAAATCAATCATATAAATCGAACAAGGGGGAATGTTCCCG (dsDNA) | T2, fruR (Faecalibacterium prausnitzii) | EMSA | apo | binds
GCCTAAAAGAGGATATCCTTATAGCATAATTAACTAAACTTAATTAAATAAATAATATATCCTAAGGAGAGAAATG (dsDNA) | Manganese transport regulator 1-215 F187A (Streptococcus pyogenes, UniProt A0A0H2UTK0) | EMSA | with: Mn2+ 300 µM | binds
CCATATGTCGGTGAATTTACAGGCGTTAGATTTACATACATTTATGGATGTATGTACCATAGCACGACGATAATATAAACGCAGCAATGGGTTTAAGGACCTTTGACCATTGACCAATTTGAAATCGGACACTCGAGGTTTACATATGAACAAAAACAGAGG (dsDNA (Salmonella enterica)) | ramA 1-113 (Salmonella enterica, UniProt H9L484) | EMSA |  | no binding
CCAAGGGTGCTATAATAGGAAATGAGTTAAAAAACGAACAAGCGTTTTATAAGTGTTCGGTTTTTGTAACATAACTGTAATATAAAAACATTTGCATTACTGGTAACTTTCGGGTAATATTGGTAGCAGAGAGGGACAAACGGGACAAATCGAGACACGATACATACTCTCTATACAAGTGAAAAGAAGGTGGTGCATAT (dsDNA) | gp1 1-58 (Bacillus phage GIL01, UniProt Q7WSG8) | EMSA | with: gp1 2-32 nM | binds
TACGTCACCGGGCTGTGCCAAAAAGGGTCGCCTGTGCGGCCCTTTTTTATTTTCGCGCCGAGGGCAGGGAAGCGCACAAAAGTGAGACTTGTGTCACGGCACGGCGCTTGCTACAAAGATGACAGAAAAGTGCCATCATTTTAATGGCGCTGAGGGTGGAGGGATTCTCCT (dsDNA (Pseudomonas syringae)) | T3, vfr 1-214 (Pseudomonas syringae) | EMSA |  | binds
CGATTGTCGACAATCAAGCGACGAATGATTGACCCCACGCAATCCAGGCGGTAGCTTTCGCAAACATTGTCGACACATCGACCCGGACAGCCAGTACCATGACCCAGAACCCGCCCCCTCTCGAGATTGCCCATGACGACGGAGAGACCTTGTCGGAACACGTCTTCCGCAAGATCCAGAGCGCCATCGTCAGCGGCG (dsDNA) | pmiR 1-240 | EMSA |  | binds
GTACAGCTCGTCGTTCGACCCCACCGCACTCCCCTCCCACCGCCGGGCGTAAGTTCATTGTGTGATGCGGCCGACCCCGCGGCGCGCGTTTTGCCGACGGCCGGGGGTGAGATGCCGTACGCTCCCGTCGAGTCGGCGGTACTGCAAAGAAATGACAGGGAGCGGCGGGCTCCGGGAAGCGGGTCCCGGGTGCCCGGCCGCATGCAACACTGCGCCATGATGAGGATC (dsDNA) | crp 1-224 | DNase I footprinting | with: cAMP 50 µM | binds
AATCTCGAGTACCCGGCGACGCCTTCTGAACCGACCTATCCTTGCCCCGGCCTTCCGCCACCGCGAAAGGCCGGGGCGTCTTGCAGCCACGACAAGAAAAACCATCCCCGAACCAGCCTGACCCGAGAGGAAACCCACCACTTACGAACCACTGGAGTACGCGATGAGTGCCAACGTCGATCTGGATCCAAT (dsDNA) | pmiR 1-240 | EMSA |  | no binding
CTAGGGATCCTAAAGGGGTATTAAACGCACTTCTAATAACGATTTTATAGCGCTTCAAAGATATAACACTAATTCATTTTAAATAATAATTAGTTAATGAACGCTTCTGTTAATCTTAGTAAATCAAAACATTGCTACAATTACATCCAACCTTGATTTCGTTATGTCTTCAAGGAAAAACACTTTAAGAATAGGAGCTGCAGCGATGC (dsDNA (Helicobacter pylori); blunt) | Putative nickel-responsive regulator 1-148 (Helicobacter pylori, UniProt O25896) | EMSA | with: NiSO4 0.8 mM | binds
TGATTGTCGACAATCGTCTAATGCATCGCTGGTCTATGCTTTCCCCTCCAGCCGCTGTGCCAGGAGAGAGTTTCGTGGGCATCTATGACCGTTACGTGTTGCCGCGCCTGATCGACTTCGCCTGCGGCATGGGCG (dsDNA) | pmiR 1-240 | EMSA |  | no binding
CGGCTTTTCTTTTCGCCTTATTTATCCAATTTATCGATTAAATAGAGAAAAGCTAACTATCCTTTACGAAATCTTCGACATCACAAAAATAATCAACTAACTTACTGATAAGTAATAAGAAAACACATAATCACCCATGTCGATAGACACTATCATCGCACTTCGTTTTTAAATCGACTTATCCGAACTGAAAATGACTCCAACGCA (dsDNA (Pseudomonas aeruginosa)) | mexT 1-304 A39V (Pseudomonas aeruginosa) | EMSA |  | no binding

Some of these lines once more:
Sequence | target | test | conditions | binding
GAGTTCTCTCCTTGTCGACCGGCTCAGAGGATCTTGTTCCCCCGGTGTACCAGGGGTCCGTGGTGCCCATTTTGCCGGACAGTCCAAACAGTGTGATCTGTCACAAGGATGCCGCACTGATGTCCCGGGGTACGCGGCAGGGGTCCAATTGGGCGCCGGTCTTCGAGGTCCGGGGCGGATGTCCGTGCCGGGTCGTAGGCTGGCCGGGTGTCCAAATCGCCGGTGAGAGCACA (dsDNA) | crp 1-224 | DNase I footprinting | with: cAMP 50 µM | binds
GCCTAAAAGAGGATATCCTTATAGCATAATTAACTAAACTTAATTAAATAAATAATATATCCTAAGGAGAGAAATG (dsDNA) | Manganese transport regulator 1-215 F187A (Streptococcus pyogenes, UniProt A0A0H2UTK0) | EMSA | with: Mn2+ 300 µM | binds
AATCTCGAGTACCCGGCGACGCCTTCTGAACCGACCTATCCTTGCCCCGGCCTTCCGCCACCGCGAAAGGCCGGGGCGTCTTGCAGCCACGACAAGAAAAACCATCCCCGAACCAGCCTGACCCGAGAGGAAACCCACCACTTACGAACCACTGGAGTACGCGATGAGTGCCAACGTCGATCTGGATCCAAT (dsDNA) | pmiR 1-240 | EMSA |  | no binding
